Published values pooled from the literature.
Parts stem from different laboratories: compare values within a part only. Substitutions count along the parent as printed.

Study 1 — method: aptamer microarray, sandwich; molecule type: DNA with 2'F-ANA; matrix: in vitro; tested at: 200 nM; together with: Cy3 exosite-II aptamer, 400 nM; reading: higher = stronger binding; oligonucleotide: GGTTGGTGTGGTTGG
Target: Prothrombin, mature alpha-thrombin (F2, Homo sapiens, UniProt P00734)
Setting: whole 15-mer aptamer, many near background
For `2'F-ANA at 1 3 4 5 6 8 9 10 11 12`, “mean fluorescence intensity” read 50.2 a.u.
`2'F-ANA at 1 4 5 7 13 14` — result for “mean fluorescence intensity”: 54.7 a.u.
Under “mean fluorescence intensity”, `2'F-ANA at 4 10 11 12 14` is recorded as 60 a.u.
For `2'F-ANA at 2 5 9 10 11 13 14`, “mean fluorescence intensity” read 48.3 a.u.
`2'F-ANA at 4 5 6 7 12 13 14` — result for “mean fluorescence intensity”: 44.4 a.u.
Under “mean fluorescence intensity”, `2'F-ANA at 2 3 4 5 6 9 10 11 13 14` is recorded as 64.5 a.u.
For `2'F-ANA at 2 6 7 8 10 13`, “mean fluorescence intensity” read 119 a.u.
For `2'F-ANA at 1 5 8 9 11 14 15`, “mean fluorescence intensity” read 52.4 a.u.

Study 2 — method: competition protein-binding microarray; molecule type: double-stranded DNA, one strand shown; matrix: in vitro; tested at: 2 µM; together with: Pho4 competitor, 0.05 µM; reading: higher = stronger binding; constant ends, left off below: … GTCTTGATTCGCTTGACGCTGCTG
Target: Centromere-binding protein 1, full length, His-tagged (CBF1, Saccharomyces cerevisiae, UniProt P17106, residues 1-351)
UniProt P17106, sequence (whole entry, looked up): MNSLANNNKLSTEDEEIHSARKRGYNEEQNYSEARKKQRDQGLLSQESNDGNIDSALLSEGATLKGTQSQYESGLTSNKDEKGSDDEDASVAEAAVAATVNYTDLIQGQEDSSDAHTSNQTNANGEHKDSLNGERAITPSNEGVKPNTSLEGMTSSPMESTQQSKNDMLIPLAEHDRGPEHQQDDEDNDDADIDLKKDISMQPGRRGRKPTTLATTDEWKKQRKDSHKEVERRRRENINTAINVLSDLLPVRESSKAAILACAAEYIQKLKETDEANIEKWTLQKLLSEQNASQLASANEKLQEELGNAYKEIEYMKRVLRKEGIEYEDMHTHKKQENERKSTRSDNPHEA
Setting: whole 60-bp probe, lowest competitor level
For `GGGCAAAACTATCCGCACGCTGAAACAGGCTGATGA`, the fluorescence intensity was 72.7 a.u.
`CGTCCTAGTGATTGTCATGTGGGTGCCATGAGGAAG` has a fluorescence intensity of 199 a.u.
The fluorescence intensity of `CATACCCAACCTTTTCACGTGAACTAAGATATTTGT` is reported as 1050 a.u.
The fluorescence intensity of `TATTTTAACATGGTCTCCGTGCCGACGGCGTACCCA` is reported as 67.9 a.u.
`TTCTAGCGCTTCCATCACGTGCTGTGGCGCTATGGT` gave a fluorescence intensity of 4170 a.u.
`GTTCGGTCCAGAGACTTCGTGATGGGCCTGAGGTGG` gave a fluorescence intensity of 85.4 a.u.
The fluorescence intensity of `CTAACGAAGGTTTTTCACGTGGCATACAAGCCAAGT` is reported as 921 a.u.
`CATACCCAACCTTGTCACGAGACTTAAGATATTTGT` has a fluorescence intensity of 1240 a.u.

Single results of other studies
P1: viral docking peptide; PGASRRLFGSSAD; partner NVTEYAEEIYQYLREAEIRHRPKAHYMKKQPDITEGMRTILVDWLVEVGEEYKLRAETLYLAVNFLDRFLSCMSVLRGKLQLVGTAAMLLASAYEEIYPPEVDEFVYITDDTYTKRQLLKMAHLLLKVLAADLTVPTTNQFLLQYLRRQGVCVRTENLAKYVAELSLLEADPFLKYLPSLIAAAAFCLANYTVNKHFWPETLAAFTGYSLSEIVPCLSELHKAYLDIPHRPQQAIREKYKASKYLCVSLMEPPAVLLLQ
P2: PafA, mature enzyme, eGFP fusion (Elizabethkingia meningoseptica, UniProt Q9KJX5); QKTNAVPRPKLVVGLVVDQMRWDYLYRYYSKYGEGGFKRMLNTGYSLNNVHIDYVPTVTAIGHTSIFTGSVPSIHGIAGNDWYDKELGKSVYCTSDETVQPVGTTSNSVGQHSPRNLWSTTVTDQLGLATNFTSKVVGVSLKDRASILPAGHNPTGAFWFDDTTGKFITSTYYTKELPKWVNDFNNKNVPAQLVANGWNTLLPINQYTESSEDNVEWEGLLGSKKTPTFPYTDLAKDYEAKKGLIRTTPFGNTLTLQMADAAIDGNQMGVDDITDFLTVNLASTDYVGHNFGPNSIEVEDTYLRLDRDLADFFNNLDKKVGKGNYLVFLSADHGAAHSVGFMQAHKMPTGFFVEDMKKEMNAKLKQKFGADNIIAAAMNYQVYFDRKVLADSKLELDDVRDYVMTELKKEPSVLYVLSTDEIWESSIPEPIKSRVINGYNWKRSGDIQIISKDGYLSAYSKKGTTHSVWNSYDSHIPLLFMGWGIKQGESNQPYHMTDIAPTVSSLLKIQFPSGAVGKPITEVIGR
`P1 G9A` — result for “normalised enrichment score”: 0.586 (CCNA1, cyclin fold, Cln2 fusion (human); yeast growth competition, sequencing; yeast; weak parent motif; reference: not given, higher = stronger binding).
For `P2 M40G`, “phosphate dissociation constant” read 687 µM (inorganic phosphate, free oxyanion; microfluidic competitive inhibition; in vitro, cell-free expressed; not given, derived from inhibition constants, unchanged parent 615000 nM; lower = stronger binding).
